# Published values from different studies.
# “And” joins repeats or separate records; there may be more than shown. ± marks the error that the study gave.
Structure (SMILES),test,system,conditions,how to read,endpoint,result
CN(CCCO)Cc1ccc(-c2noc(-c3ccc(OCC[18F])c(C(F)(F)F)c3)n2)cc1F,,"Sprague-Dawley rat, male, bone",5 min post-injection,,bone uptake,0.27 ± 0.03 %ID/g
C=C(NC(=O)c1csc(-c2nc3c(cc2O)-c2nc(cs2)C(=O)NC(C(C)O)C(=O)NC(=C(C)OC)c2nc(cs2)C(=O)NC2c4nc(cs4)C(=O)NC(COC(=O)c4c5c6c(cccc6n4O)COC(=O)C(OC4CC(C)(O)C(N(C)C)C(C)O4)C2OC5)c2nc-3cs2)n1)C(N)=O (centres unmarked),,"Sprague-Dawley rat, both sexes, plasma","intravenous infusion, 6 mg/kg, multiple doses, day 7",,Cmax,3560 ± 627 ng/mL
COc1ccc2c(c1)CN(C(=O)CCN1CCC(Cc3ccccc3)CC1)CCS2,,paroxysmal AF patients,"oral, 540 mg, 90 min",reference: baseline,maximum QTcB change,50.8 ms
Cc1ccc(OCC(=O)N(Cc2cccs2)c2ccn[nH]2)cc1,,dog plasma,"750 ng/mL, 6 h, 37 °C, unit not given",reference: time zero,remaining compound,112
O=C(Nc1cnccc1-c1ccc([18F])nc1)c1ccnc(NC(=O)C2CC2)c1,,"FVB/NJ mice, both sexes, brain","intravenous, 5 min, median, P-gp inhibitor pretreatment, together with: tariquidar 15 mg/kg iv",,SUV,0.404
COc1cccc(OC)c1-c1cc(C(=O)NC2(C(=O)O)C3CC4CC(C3)CC2C4)nn1-c1ccc(C(=O)NCCNC(=O)[C@H](CCCCNC(=O)[C@H](CC(C)C)NC(=O)C2OC2C(=O)O)NC(=O)CN2CCN(CC(=O)[O-])CCN(CC(=O)[O-])CCN(CC(=O)[O-])CC2)cc1C(C)C.[177Lu+3] (mixture of isomers),,"mouse, HT-29 xenograft","4 h post injection, biodistribution",reference: tumour over brain uptake,tumour-to-brain ratio,61.8
CCCC[C@H](NC(=O)COCCOCCNC(=O)CN1CCN(CC(=O)O)CCN(CC(=O)O)CC1)C(=O)N[C@H]1CC(=O)NCCCC[C@@H](C(N)=O)NC(=O)[C@H](Cc2c[nH]c3ccccc23)NC(=O)[C@H](CCCNC(=N)N)NC(=O)[C@@H](Cc2ccccc2)NC(=O)[C@H](Cc2c[nH]cn2)NC1=O [fluorine-18 labelled],,"C57 mice B16-F10 melanoma, blood","intravenous, 0.37 MBq, 2 h",,tissue uptake,0.17 ± 0.24 %ID/g
Oc1ccccc1/C=N/Nc1nnc(N/N=C/c2ccccc2O)c2ccccc12,haemolysis,human,"1 mM, 45 min",,haemolysis,6.5%
COc1cc(OCCN2CCOCC2)cnc1-c1nc2cc(OC(F)(F)F)ccc2[nH]1,,"Balb/c mouse, female, plasma","oral gavage, 100 mg/kg",,Vd/F,754 mL
O=C(Nc1cnccc1-c1ccc([18F])cc1)c1ccnc(NC(=O)C2CC2)c1,"ex vivo biodistribution, gamma counting","GSK-3β overexpressing transgenic mouse, late stage, brain stem","intravenous, 1.26 MBq/animal, 120 min post-injection",,mean SUV,0.17
C=CC(=O)Nc1cc(Nc2nccc(-c3cn(C)c4ccccc34)n2)c(OC)cc1N(C)CCNC,storage stability,human dried blood spots,"72 h, -80 °C, LLOQ level",,recovery,92.3%
CN1CCCNC(=O)c2cccc(c2)C(=O)NCCCN(C)CCCNc2cccc3c2C(=O)c2cccc(c2C3=O)NCCC1,,"mouse, serum",dose not given,,blood urea nitrogen,23.8 mg/dL and 27.8 mg/dL and 22.7 mg/dL
Cc1cc(-c2ccc(C(=O)[C@@H]3CCCC[C@H]3C(=O)Nc3cnn4c3C(=O)NCC4)cc2)[nH]n1,,"human, faeces","oral, 200 mg, 168-192 h",reference: dose,radioactivity recovery per interval,0.03% and 0.05% and 0.04% and 2.15% and 0.09%
CC[C@H](C)[C@@H]1NC(=O)[C@H](Cc2ccc(O)cc2)NC(=O)CCCSC[C@@H](C(=O)N(CC(=O)N[C@@H](CC(C)C)C(=O)NCC(N)=O)Cc2ccc(F)cc2)NC(=O)[C@H](CC(N)=O)NC(=O)[C@H](CCC(N)=O)NC1=O,,"healthy women, plasma",intranasal,,tmax,~0.25 h
CCCCN1C(=O)c2cccc3c(NCCN4CCOCC4)ccc(c23)C1=O,,MeCN,,,molar extinction coefficient,5980 M⁻¹ cm⁻¹
CC(C)[C@H](NC(=O)[C@H](Cc1c[nH]c2ccccc12)NC(=O)[C@H](CCCNC(=N)N)NC(=O)[C@H](CCCNC(=N)N)NC(=O)[C@@H](NC(=O)[C@@H](NC(=O)[C@H](CCCNC(=N)N)NC(=O)[C@@H](NC(=O)[C@@H](NC(=O)[C@H](CCCNC(=N)N)NC(=O)[C@H](CCCNC(=N)N)NC(=O)[C@@H](NC(=O)[C@H](Cc1c[nH]c2ccccc12)NC(=O)[C@H](CCCNC(=N)N)NC(=O)[C@H](CCCNC(=N)N)NC(=O)[C@@H](NC(=O)[C@H](CCCNC(=N)N)NC(=O)[C@H](CCCNC(=N)N)NC(=O)[C@@H](NC(=O)[C@H](Cc1c[nH]c2ccccc12)NC(=O)[C@H](CCCNC(=N)N)NC(=O)[C@@H](N)CCCNC(=N)N)C(C)C)C(C)C)C(C)C)C(C)C)C(C)C)C(C)C)C(C)C)C(=O)N[C@@H](CCCNC(=N)N)C(=O)N[C@@H](CCCNC(=N)N)C(=O)O,,"CD1 mouse, urine","intravenous, 15 mg/kg, 6 h, [14C]-labelled compound",,glucose,78 mg/dL
CCCCN1C(=O)c2cccc3c(NCCCCCCCCN4CCOCC4)ccc(c23)C1=O,,ethylene glycol,,,molar extinction coefficient,12200 M⁻¹ cm⁻¹
C=CC(=O)N1CCCC(n2c(=O)c3ncccc3n(Cc3ccc(Oc4ccccc4)cc3)c2=O)C1 (centres unmarked),,"BALB/c mice, male, plasma","intraperitoneal, 200 mg/kg, 1 h",,plasma concentration,91000 ng/mL
[123I]c1ccc2nc(-c3ccc(-n4ccnn4)nc3)cn2c1,,"male Wistar rat, blood","intravenous, 4 MBq, 1 h",,tracer uptake,0.121 %ID/g
CCCC[C@H](OC(C)=O)c1ccccc1C(=O)O,,"Sprague-Dawley rat, both sexes, whole blood","intravenous, 5 mg/kg, day 7",,MRT(0-inf),4.3 ± 1.2 h
Cn1c2cc([S+](C)[O-])sc2c2cnn(Cc3cccc(N)c3)c(=O)c21 (centres unmarked),,"male BALB/c mouse, plasma","intraperitoneal, 10 mg/kg, single dose",,bioavailability,> 100%
O=C([O-])CN1CCN(CC(=O)[O-])CCN(C(CO)C(O)CO)CCN(CC(=O)[O-])CC1.[Dy+3] (centres unmarked),,"cynomolgus monkey, muscle","dose not given, day 58, PK group",,lanthanide tissue concentration,0.072 ± 0.1 nmol/g
Cc1cc(C(=O)N[C@@H](CC(=O)NC(C)(C)C)C(=O)NCCNC(=O)c2cc(-c3ccccc3)ccn2)no1,,"mouse, plasma","intravenous, 0.1 mg/kg",,mean residence time,0.27 h
CC[C@H](C)[C@H](NC(=O)CNC(=O)[C@H](C)NC(=O)[C@H](CC(=O)O)NC(=O)[C@H](CO)NC(=O)[C@H](C)NC(=O)[C@H](CC(C)C)NC(=O)[C@H](CCCCN)NC(=O)[C@H](CCCCN)NC(=O)[C@H](CCSC)NC(=O)[C@H](CC(N)=O)NC(=O)[C@H](Cc1ccccc1)NC(=O)[C@H](CC(=O)O)NC(=O)[C@@H](N)CCSC)C(=O)N[C@@H](Cc1c[nH]c2ccccc12)C(=O)N[C@@H](Cc1ccccc1)C(=O)N[C@H](C(=O)N[C@@H](CCCNC(=N)N)C(=O)N[C@@H](C)C(=O)N[C@H](C(=O)N[C@@H](CCC(N)=O)C(=O)N[C@@H](Cc1ccccc1)C(=O)N[C@H](C(=O)N[C@@H](CCC(=O)O)C(=O)N[C@@H](CCC(=O)O)C(=O)N[C@@H](CCCCN)C(=O)N[C@@H](Cc1ccccc1)C(=O)NCC(=O)N[C@@H](CCC(N)=O)C(=O)N[C@@H](C)C(N)=O)[C@@H](C)O)C(C)C)[C@@H](C)O,circular dichroism,phosphate buffer,pH 7.4,,fractional helicity,0.83%
[2H]C([2H])([18F])Oc1cc(C(=O)OCC2CCN(CCCC)CC2)ccc1N,,"rhesus monkey, NaF-inhibited plasma",baseline,,plasma free fraction,0.497 ± 0.03
O=C1NC2(CC2)COc2ncc(F)cc2[C@H]2COCCN2c2ccn3ncc1c3n2,bone marrow micronucleus test,"NIH mice, female","oral, 200 mg/kg/day, 3 days",,PCE/(PCE+NCE) ratio,0.372 ± 0.053
Cc1nc(N)nc2c1C(=O)N[C@@H](c1ccc(F)cc1-c1cccc(O[11CH3])n1)C2,ex vivo biodistribution,"healthy mice, kidneys","60 min post-injection, baseline, vehicle pre-treatment",,SUV,1.6 ± 0.1
CCCCN1C(=O)c2cccc3c(NCCCN4CCOCC4)ccc(c23)C1=O,,EG,,,molar extinction coefficient,5400 M⁻¹ cm⁻¹
C=Cc1ccccc1[B-]12OC(=O)C(c3ccccc3)=N[N+]1=C(CC)c1ccc(N(CC)CC)cc1O2 (centres unmarked),,toluene,,,molar absorption coefficient,54000 M⁻¹ cm⁻¹
CC(=O)N[C@@H](CCCCN)C(=O)N1CCC[C@H]1C(=O)N[C@H](C(=O)N[C@@H](Cc1ccccc1)C(=O)N[C@@H](CCC(N)=O)C(=O)N[C@@H](Cc1ccccc1)C(=O)N[C@@H](CC(C)C)C(=O)N[C@@H](Cc1ccccc1)C(=O)N[C@@H](Cc1c[nH]cn1)C(=O)N[C@@H](CCC(=O)O)C(N)=O)C(C)C,cryo-EM,hydrogel,pH 7.4,,mean pore diameter,5.6 µm
C=CC(=O)Nc1cc(Nc2nccc(-c3c[nH]c4ccccc34)n2)c(OC)cc1N(C)CCN(C)C,storage stability,human dried blood spot,"10 d, -80 °C, MQC level",,recovery,88.7%
CCCCN1C(=O)c2cccc3c(NCCCCCCCCCCN4CCOCC4)ccc(c23)C1=O,,water,pH 6.0,,molar extinction coefficient,11400 M⁻¹ cm⁻¹
C=Cc1c(C)c2cc3nc(c(CC(=O)[O-])c4[n-]c(cc5nc(cc1[n-]2)C(C)=C5CC)c(C)c4C(=O)[O-])C(CCC(=O)[O-])C3C.[Cu+2].[Na+].[Na+].[Na+] (centres unmarked),,mouse,"oral, dose not given",,time to visible green colour in bladder,≤ 72 h
COCC1CN(C2CCN(c3cc(OC)c(Nc4ncc(Br)c(Nc5ccc6c(c5P(C)(C)=O)OCCO6)n4)cc3C)CC2)C1,,"EGFR-mutant NSCLC patients, plasma","oral, 10 mg multiple doses, geometric mean",,Cmin,15.4 ng/mL
O=C(O)CCCOc1ccc([18F])cc1-c1cc(-c2ccccc2C(F)(F)F)n(-c2ccccc2)n1,OLINDA/EXM extrapolation from mouse,"human adult, osteogenic cells",,,absorbed radiation dose,10.9 µGy/MBq
CCC1(CC)CC(=O)N(C2CCOc3ccc(C(=O)NC4CC(C)(C)Oc5ccccc54)cc32)C(=N)N1 (centres unmarked),metabolic stability,"dog, hepatocytes",,,hepatocyte CLint,18.4 µL/min/10⁶ cells
CN(O)C(=O)CCC(=O)NCCCN(CCCCN(CCCNC(=O)CCC(=O)N(C)O)C(=O)CCC(=O)N(C)O)C(=O)CCC(=O)N(C)O.[89Zr],,"mouse, spleen",24 h,,tracer uptake,0.03 %ID/g
CN([O-])C(=O)CN1CCNCCN(CC(=O)N(C)[O-])CC1.[89Zr+4],,"mouse, blood","intravenous, 1 h",,tracer uptake,0.68 %ID/g
CCCCN1C(=O)c2cccc3c(NCCCCCN4CCOCC4)ccc(c23)C1=O,,ethylene glycol,,,molar extinction coefficient,6000 M⁻¹ cm⁻¹
COc1ccc(CCC(C)N2CCc3cc(O[11CH3])c(OC)cc3C2)cc1 (racemic),,brain homogenate,"injection, 30 min",reference: radioactivity,hydrophilic metabolite fraction,3.3 ± 1%
CC[C@H](C)[C@@H](C(=O)N[C@@H](CC(C)C)C(=O)N[C@@H](CO)C(=O)N[C@@H](CO)C(=O)N[C@H](C(=O)N[C@@H](CCC(=O)O)C(=O)N[C@H](C(=O)NCC(=O)N[C@@H](CO)C(=O)N[C@@H](CC(N)=O)C(=O)N[C@H](C(=O)N1C[C@H](O)C[C@H]1C(N)=O)[C@@H](C)O)C(C)C)[C@@H](C)O)N(C)C(=O)[C@H](C)NC(=O)CN(C)C(=O)[C@H](Cc1ccccc1)NC(=O)[C@H](CO)NC(=O)[C@H](CO)NC(=O)[C@H](CCCNC(=N)N)NC(=O)[C@H](CCC(N)=O)NC(=O)[C@H](CC(C)C)NC(=O)[C@H](Cc1ccccc1)NC(=O)[C@H](CCCC(=O)O)NC(=O)[C@H](C)NC(=O)[C@H](CC(C)C)NC(=O)[C@H](CCCNC(=N)N)NC(=O)[C@H](CCC(=O)O)NC(=O)[C@@H](NC(=O)[C@H](C)NC(=O)[C@@H]1CCCCNC(=O)C[C@H](NC(=O)[C@H](CCCNC(=N)N)NC(=O)CC[C@H](NC(=O)CCCCCCCCCCCCCCCCCCC(=O)O)C(=O)O)C(=O)NCC(=O)N[C@@H]([C@@H](C)O)C(=O)N[C@@H](C)C(=O)N[C@@H]([C@@H](C)O)C(=O)N1)[C@@H](C)O,RP-UPLC,"Tris buffer, mannitol, NaCl","1 week, pH 6.6, 40 °C",,chemical degradation,≤ 3%
